Measured values collected from several papers.
Values joined by “and” are separate records of one study, mostly repeats; a detail may differ. ± marks the error that the study gave.

Structure (SMILES) = Cc1cc(Nc2ncc(Cl)c(Nc3ccccc3S(=O)(=O)C(C)C)n2)c(OC(C)C)cc1C1CCNCC1; tested on = CLB-GE; assay = phosphoproteomics LC-MS/MS, item: SUN2 phosphorylation; setting = 200 nM, 60 min; how to read = baseline: untreated; endpoint = log2 fold change; value = -2.54
Structure (SMILES) = CCCCCCCCCCCCCCCCCCOc1ccc(CC(=O)OCCC[N+](C)(C)C)cc1; tested on = NSCLC panel (nine cell lines); setting = 10 µM; endpoint = mean growth inhibition; value = 17.3%
Structure (SMILES) = C=CCn1c(=O)c2cnc(Nc3ccc(N4CCN(C)CC4)cc3)nc2n1-c1ccc2c(n1)[C@@](O)(CC)CC2; tested on = MDA-MB-231; assay = flow cytometry; setting = concentration not given; endpoint = pHH3-negative cells; value = 89.8%
Structure (SMILES) = Cn1cc(-c2ccc(-c3cncc(Cl)c3N3CCC4(CCNC4=O)CC3)cc2)cn1; tested on = COLO 205; assay = microarray, item: c-Myb; setting = concentration not given, 4 h; how to read = baseline: untreated cells; endpoint = fold change in expression; value = -1.37
Structure (SMILES) = Cc1n[nH]c(C)c1CSc1ccccc1; tested on = U-937; assay = cytotoxicity; how to read = baseline: IC50 HEK293 over IC50 U-937; endpoint = selectivity index; value = 1.3
Structure (SMILES) = Nc1ncnc2nc(-c3ccc(N4CCOCC4)nc3)cc(-c3cccc(Br)c3)c12; tested on = activated human T cells; test system = human; setting = 316 nM; endpoint = T cell proliferation; value = 96.9% and 93.2% and 95%
Structure (SMILES) = CCc1cnc(N2CCC(c3nc(COc4ccc(-n5cnnn5)cc4)cs3)CC2)nc1; tested on = HEK-293T; assay = RNA-seq GSEA, item: HALLMARK_DNA_REPAIR; setting = concentration not given; how to read = direction not given; endpoint = normalized enrichment score; value = -1.52
Structure (SMILES) = CCn1cc(-c2cc(Cn3ccnc3)cc3c2CCN([C@H](c2cc(OC)ccn2)C2CC2)C3=O)c(C(F)(F)F)n1; tested on = COLO-741; assay = cell growth, inhibitor; setting = 120 h; endpoint = EC50; value = 1.84 µM
Structure (SMILES) = CC(C)C[C@H](NC(=O)C[C@H](O)[C@H](CC(C)C)NC(=O)[C@H](Cc1c[nH]cn1)NC(=O)CNC(=O)[C@@H](NC(=O)[C@H](C)NC(=O)[C@H](Cc1c[nH]c2ccccc12)NC(=O)[C@H](CCC(N)=O)NC(=O)[C@@H](Cc1ccccc1)NC(=O)COCCOCCNC(=O)CCC(C(=O)O)N1CCN(CC(=O)O)CCN(CC(=O)O)CCN(CC(=O)O)CC1)C(C)C)C(N)=O (some centres unmarked) [lutetium-177 labelled]; test system = BALB/c nu/nu mice, skin; setting = intravenous, 250 pmol, 1 h, together with: PA 300 µg; endpoint = tissue uptake; value = 0.4 ± 0.1 %ID/g
Structure (SMILES) = COc1ccc(-n2nc(C(C)=O)s/c2=N\N=C(/C)c2ccc(NC(=O)c3ccc(Cl)cc3)cc2)cc1; tested on = MCF7; setting = 1.25 µM; endpoint = viability; value = 8.8%
Structure (SMILES) = Cc1nn(-c2nc3c(F)cc(F)cc3s2)c(O)c1C(c1ccc(C(F)(F)F)cc1)c1c(C)nn(-c2nc3c(F)cc(F)cc3s2)c1O; tested on = THP1-Dual; assay = IFN luciferase reporter; setting = 0.625 µM, together with: HT-DNA; endpoint = inhibition; value = -12.7% and -0.029% and -2.54% and -10.7% and -3.12% and 1.45%
Structure (SMILES) = CCCCN1C[C@H](O)[C@@H](O)[C@H](O)[C@H]1CO; tested on = Sandhoff disease patient fibroblasts; assay = glycosphingolipid lowering, LC-MS/MS, item: GM3 d18:1/23:0; endpoint = IC50; value = 6.85 µM
Structure (SMILES) = C/C=C/C/C=C/CCC(=O)[C@H]1O[C@H]1C(N)=O; tested on = MDA-MB-231, BAX/BAK siRNA knockdown; assay = cell viability, CellTiter-Glo; how to read = direction not given; endpoint = Z score; value = -1.1
Structure (SMILES) = Nc1ncnc2c1ncn2[C@@H]1O[C@H](CO)[C@@H](O)[C@H]1O; tested on = activated human T cells; setting = 3.16 µM; how to read = higher = more proliferation; endpoint = T cell proliferation; value = 64.6 a.u. and 67.8 a.u. and 65 a.u.
Structure (SMILES) = COc1ccc(C(=O)C2CCN(CC(=O)N(Cc3nc4c(c(=O)[nH]3)COCC4)CC3CC3)CC2)cc1; tested on = HEK293 STF; assay = β-catenin stabilisation, immunoblot; setting = 2 µM, together with: Wnt3a conditioned medium; endpoint = inhibition; value = inhibited
Structure (SMILES) = COc1c(C)c(OC)c(C(=O)/C=C/c2ccccc2)c(OC)c1C; tested on = SH-SY5Y; assay = SRB; how to read = baseline: normal over SH-SY5Y IC50; endpoint = selectivity index; value = 1.49
Structure (SMILES) = Nc1cccc2c1C(=O)N(C1CCC(=O)NC1=O)C2=O (centres unmarked); tested on = MM1.S resistant to compound; assay = XTT; setting = 1 µM; endpoint = viability; value = 88% and 52% and 56%
Structure (SMILES) = C=Cc1c2[n-]c(c1C)/C=c1\[n-]/c(c(C)c1C=C)=C\c1[n-]c(c(CCC(=O)O)c1C)/C=c1\[n-]c(c(C)c1CCC(=O)O)=C2.[Sn+4]; tested on = SH-SY5Y; assay = RNA-seq, item: IL4R mRNA; setting = 5 µM, 5 h; how to read = baseline: untreated cells; endpoint = fold change; value = 2.85
Structure (SMILES) = COc1cnc2cccc(N3CCc4c(cc(Cn5ccnc5C)cc4-c4cn(C)nc4C(F)(F)F)C3=O)c2c1; tested on = RMUGS; assay = cell growth; setting = 120 h; endpoint = EC50; value = > 30 µM
Structure (SMILES) = NC(=O)CCNC(=O)c1ccc([C@H]2[C@@H](F)[C@@H](F)C[C@@H](F)[C@H]2F)cc1; assay = hepatocyte stability; test system = cryopreserved mouse hepatocytes; setting = 1 µM; endpoint = hepatic clearance; value = 21 mL/min/kg
Structure (SMILES) = CC1(C)CCC(CN2CCN(c3ccc(C(=O)NS(=O)(=O)c4ccc(NCC5CCOCC5)c([N+](=O)[O-])c4)c(Oc4cnc5[nH]ccc5c4)c3)CC2)=C(c2ccc(Cl)cc2)C1; tested on = KCL-22; assay = annexin V/PI flow cytometry, item: annexin V+/PI-; setting = 3.2 µM, 24 h; endpoint = early apoptotic cells; value = 13.8%
Structure (SMILES) = CCOc1cc2ncc(C#N)c(Nc3ccc(F)c(Cl)c3)c2cc1NC(=O)/C=C/CN(C)C; tested on = SNU-1040; setting = 0.33 µM, 72 h, 100% DMSO; how to read = baseline: vehicle; endpoint = cell growth; value = 83.3%
Structure (SMILES) = O=C(NCC1CCOCC1)c1ccc([C@H]2[C@@H](F)[C@@H](F)C[C@@H](F)[C@H]2F)cc1; assay = hepatocyte stability; test system = cryopreserved rat hepatocytes; setting = 1 µM; endpoint = hepatic clearance; value = 13 mL/min/kg

For quick reference, copied from above:
Structure (SMILES) = CCn1cc(-c2cc(Cn3ccnc3)cc3c2CCN([C@H](c2cc(OC)ccn2)C2CC2)C3=O)c(C(F)(F)F)n1; tested on = COLO-741; assay = cell growth, inhibitor; setting = 120 h; endpoint = EC50; value = 1.84 µM
Structure (SMILES) = Cc1n[nH]c(C)c1CSc1ccccc1; tested on = U-937; assay = cytotoxicity; how to read = baseline: IC50 HEK293 over IC50 U-937; endpoint = selectivity index; value = 1.3
Structure (SMILES) = Cc1cc(Nc2ncc(Cl)c(Nc3ccccc3S(=O)(=O)C(C)C)n2)c(OC(C)C)cc1C1CCNCC1; tested on = CLB-GE; assay = phosphoproteomics LC-MS/MS, item: SUN2 phosphorylation; setting = 200 nM, 60 min; how to read = baseline: untreated; endpoint = log2 fold change; value = -2.54
Structure (SMILES) = NC(=O)CCNC(=O)c1ccc([C@H]2[C@@H](F)[C@@H](F)C[C@@H](F)[C@H]2F)cc1; assay = hepatocyte stability; test system = cryopreserved mouse hepatocytes; setting = 1 µM; endpoint = hepatic clearance; value = 21 mL/min/kg
